Measurements collected from several papers.
Parts stem from different laboratories: compare values within a part only. Positions count from the first letter of the parent shown.

Sample 1
Target: Hepatocyte nuclear factor 3-alpha (Foxa1, Mus musculus, UniProt P35582, residues 1-468, full length assumed)
Method: EMSA with sequencing
Form: double-stranded DNA, one strand shown
Medium: in vitro
Tested at: 10 and 20 nM
Setting: whole designed probe, mean of two concentrations, ends assumed
Relative to: negative control set to 0
Direction: higher = stronger binding
Target sequence (chain): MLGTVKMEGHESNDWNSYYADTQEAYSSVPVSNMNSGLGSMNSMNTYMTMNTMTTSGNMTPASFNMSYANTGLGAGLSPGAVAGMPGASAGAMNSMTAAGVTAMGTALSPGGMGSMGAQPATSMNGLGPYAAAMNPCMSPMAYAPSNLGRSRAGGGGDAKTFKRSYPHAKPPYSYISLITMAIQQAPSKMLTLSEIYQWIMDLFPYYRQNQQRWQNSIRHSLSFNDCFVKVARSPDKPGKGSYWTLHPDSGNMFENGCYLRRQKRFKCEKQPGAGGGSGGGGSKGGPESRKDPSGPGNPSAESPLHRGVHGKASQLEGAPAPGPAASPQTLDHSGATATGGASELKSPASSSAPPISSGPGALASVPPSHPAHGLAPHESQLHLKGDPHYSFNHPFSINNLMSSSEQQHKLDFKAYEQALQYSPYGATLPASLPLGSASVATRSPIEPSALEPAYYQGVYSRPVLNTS
Oligonucleotide | normalised bound fraction
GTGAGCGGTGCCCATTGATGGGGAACTAGCTTTGAAAACTGTGAAAGGGGATAACCCATAATTTCTTTTTTGATAAAATGACATGCCCCAGGGGTGAGCTAGGTTTGCTTTGACAAGAAAGTAAACAAGGAGCAAGTGAAAGGAAATGAAAAATATATTACCAAACTCTCATCTTTCAGCTGCTGATGCTGCCTATTGTCAGCTGCAGCAGAGTGTAGATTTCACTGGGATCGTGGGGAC | 0.365 ratio
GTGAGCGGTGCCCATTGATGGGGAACTCTAGAAAATGAGATGTGTTGAAGCGGGGAAGTGTTTGATTGTCAGGTCTAGAGGAAAAGAATAGGAAAAGTCTCCGAGCTTTGAATTTCCTGATGTTTACATAGTACAAAGGTTTATTAGAAGAGGCTGACGAATGTCTAAAAGGCTCAGTTTCTTCTATTGTATTTTCAAATAGCAGAGAAATAGCTTTATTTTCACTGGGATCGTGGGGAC | 0.43 ratio
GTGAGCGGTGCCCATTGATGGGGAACGATTTTTGGGGATTTTTGAAAATAGCCCTATGTCTTGGATATGAGTCACAAATTGCCCCCCCCCCCACCATTTCGTCATTTGTCTCCAAGCTCAGATTACATTGGAGATTGCCGTGCAGAAGTTTTTCTTTAATGTAATAAAATGTAGCCATCTTTTTTAAAATGACCTCTGGACTTCATGTGTTTGGAGTTTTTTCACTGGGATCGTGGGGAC | 0.186 ratio
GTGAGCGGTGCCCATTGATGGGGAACCATTTGCCTCACACAGAGTTACAAAAGTTACACCCTGTTTTCAGAAAAACTTTCCCAATACAGGCAGAGAGTTCATGTTTATTTCATAAACCTAGATTGCTTACATGTTCCAACCATTTTACAAATACTAACTCATTAAATCCTCATAACAACTCAATGGGGTAGGTTGTATTATTACCTTCATTTTACAGGTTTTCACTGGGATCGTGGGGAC | 0.0466 ratio
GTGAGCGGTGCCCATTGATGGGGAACATTAATACATTACCTCAAGAAGAAAAAACTAGTGAGAACACACAACTTATATAAAAACATTATCTTTAAAAGACATTGGAAATTGTATTTCCTGTTTACTTTGTGTTCTTGTTTAAATGTCAAAGAGAGAAAAACCCTAGTGAATTTAAAAAAAAAAAAAAAAAAAATTAGAAAATACAAATTAGTAAAAATATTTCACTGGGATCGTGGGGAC | 0.391 ratio
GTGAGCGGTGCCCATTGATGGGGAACTTAAGTTGGCAAAATTTAGGAAGCCAGATGATGCCAGATTTTGGCAGGACTTTGAGGATATTGGAACCATTACAGGTTCCTATGACTCAGCAAAGATTGCATAGGTTATGAGAGAACATGTAAGGAATTGTTTATTAAGGCATTATTTGAAGTGGCAATGAGTTGGAGGACATTCGCAAATCCATCACTGAGATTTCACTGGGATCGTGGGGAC | 0.101 ratio
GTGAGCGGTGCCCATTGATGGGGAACTTAGACCCTTTAAGTAAATTGCAAACAGTTCCCCCTGTGTGAAGCATTGTCTAGCCTACCAAACTGCCTGAAACAATCGTTGACATTTCTTGTGTAAATAACAGCAGTGGATTCAGCGCTTCCAAGAATGGGAGTTGAAAAAATAATGAACTATGTTTTTTTCAAGATAAAACACACTGTGCTCTCCAGAAATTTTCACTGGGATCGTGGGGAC | 0.46 ratio
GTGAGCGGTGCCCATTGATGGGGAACCCCTTGGAATGAAGGCAAATGAGGATTTAGAATACTTGCAGGTTGTTCTGTCAGTACTAATTTGAGTGCTAAAGTTCTATTTGCAAACCTAAGTAATCTGGAATGTAGACAGCTTGAACAAGATGAAATTGTGATATCGCCCAAAGGAACAAGCTGATCAGGGAAAGCTCAGCATGCATTTGAATCAAGAGCATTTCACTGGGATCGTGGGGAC | 0.0569 ratio

Sample 2
Target: HLA class I histocompatibility antigen, A alpha chain, allele A*80:01 (Homo sapiens, UniProt P04439)
Effect on: peptide-MHC binding
Form: peptide
Tested at: concentration not given
Molecule | binding
WVDSTPPPG | inactive
HLTRVGPYL | inactive
SVIDHIHYM | inactive
RRRPVTRPL | inactive

Sample 3
Target: TAR DNA-binding protein 43, full length, His tag (TARDBP, Homo sapiens, UniProt Q13148, residues 1-414)
Method: RNA Bind-n-Seq
Form: RNA
Medium: in vitro
Tested at: 20 nM
Setting: 6-mer, flanks averaged, single round
Together with: 150 mM KCl
Relative to: input library
Direction: higher = stronger binding
Oligonucleotide | 6-mer enrichment (R)
AAGCUU | 0.578
ACUGGG | 1.96
UGAGUU | 0.791
UUGCUA | 0.631
ACUUCA | 0.553
GUAAAG | 1.02
GGACCA | 1.1
AGUGGG | 3.82

Sample 4
Target: UBE2D4 UBC core domain (UniProt Q9Y2X8)
Method: yeast two-hybrid
Medium: yeast
Setting: mostly zero background
Relative to: not given
Direction: higher = stronger interaction
B1: TRIM15 RING domain (UniProt Q9C019); chain SLKVVHELPACTLCAGPLEDAVTIPCGHTFCRLCLPALSQMGAQSSGKILLCPLCQEEEQAETPMA
B2: RNF32 RING domain (UniProt Q9H0A6); chain SLLQGDSVQPCPICKEEFELRPQVLLSCSHVFHKACLQAFEKFTNKKTCPLCRKNQYQTRVIH
Target sequence (chain): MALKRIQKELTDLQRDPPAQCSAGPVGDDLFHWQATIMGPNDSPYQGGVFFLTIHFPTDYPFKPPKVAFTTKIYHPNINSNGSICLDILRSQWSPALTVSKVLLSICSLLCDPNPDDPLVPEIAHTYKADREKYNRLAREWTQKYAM
Molecule | lacZ reporter activity
B1 (TRIM15 RING domain) | 0
FLKKLEQSFMCVCCQELVYQPVTTECFHNVCKDCLQRSFKAQVFSCPACRHDLGQNYIMI (UHRF2 RING domain (UniProt Q96PU4)) | 7410
B2 (RNF32 RING domain) | 0

Sample 5
Target: CCND1, cyclin fold, Cln2 fusion (human)
Method: yeast growth competition, sequencing
Medium: yeast
Setting: weak parent motif
Relative to: not given
Direction: higher = stronger binding
Parent: viral docking peptide; TSVRRALFTGGSD; partner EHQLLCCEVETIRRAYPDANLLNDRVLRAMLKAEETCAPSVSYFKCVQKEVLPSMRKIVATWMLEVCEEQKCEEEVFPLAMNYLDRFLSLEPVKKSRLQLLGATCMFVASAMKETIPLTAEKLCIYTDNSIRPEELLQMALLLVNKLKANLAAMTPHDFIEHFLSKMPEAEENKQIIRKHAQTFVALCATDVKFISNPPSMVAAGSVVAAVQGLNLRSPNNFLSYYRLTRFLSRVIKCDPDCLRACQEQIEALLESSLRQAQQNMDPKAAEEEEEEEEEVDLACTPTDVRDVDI
Variant | normalised enrichment score
R5M | 0.254
F8C | -0.246
F8M | -0.229
F8G | -0.0203
R4F | 0.513
G11M | 0.291
V3K | 0.157
S2A | 0.207
S12A | 0.37
F8E | -0.373
T9W | 0.528
A6I | 0.781
R5G | 0.241
S12E | 0.696
V3P | 0.561
G10S | 0.494

Excerpt of the above (sample 5):
Variant | normalised enrichment score
R5M | 0.254
F8G | -0.0203
S12E | 0.696
S2A | 0.207
V3K | 0.157
